Measurements of several laboratories.
Protocols differ between the studies behind these lines. ± marks the error that the study gave.
Calcitonin-gene-related peptide receptor, CALCRL/RAMP1: Calcitonin-gene-related peptide receptor, CALCRL/RAMP1 (Homo sapiens, UniProt O60894+Q16602)
Sequence of UniProt O60894 (whole entry, looked up): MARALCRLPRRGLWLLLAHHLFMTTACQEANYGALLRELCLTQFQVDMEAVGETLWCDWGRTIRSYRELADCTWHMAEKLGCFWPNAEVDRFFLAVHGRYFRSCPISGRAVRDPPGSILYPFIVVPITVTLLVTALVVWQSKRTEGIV
Sequence of UniProt Q16602 (whole entry, looked up): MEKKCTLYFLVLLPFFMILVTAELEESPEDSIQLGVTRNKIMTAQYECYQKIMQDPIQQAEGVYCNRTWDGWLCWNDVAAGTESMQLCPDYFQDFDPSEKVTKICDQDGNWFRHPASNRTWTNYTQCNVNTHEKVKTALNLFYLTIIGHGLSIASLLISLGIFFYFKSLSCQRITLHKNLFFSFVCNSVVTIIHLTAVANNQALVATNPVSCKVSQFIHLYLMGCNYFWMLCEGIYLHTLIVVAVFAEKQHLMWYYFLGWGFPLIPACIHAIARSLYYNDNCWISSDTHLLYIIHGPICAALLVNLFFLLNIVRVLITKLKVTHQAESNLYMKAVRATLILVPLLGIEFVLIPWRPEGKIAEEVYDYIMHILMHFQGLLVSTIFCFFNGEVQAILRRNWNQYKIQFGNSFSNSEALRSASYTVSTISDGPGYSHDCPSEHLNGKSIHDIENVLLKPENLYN
Sequence of UniProt O09047 (whole entry, looked up): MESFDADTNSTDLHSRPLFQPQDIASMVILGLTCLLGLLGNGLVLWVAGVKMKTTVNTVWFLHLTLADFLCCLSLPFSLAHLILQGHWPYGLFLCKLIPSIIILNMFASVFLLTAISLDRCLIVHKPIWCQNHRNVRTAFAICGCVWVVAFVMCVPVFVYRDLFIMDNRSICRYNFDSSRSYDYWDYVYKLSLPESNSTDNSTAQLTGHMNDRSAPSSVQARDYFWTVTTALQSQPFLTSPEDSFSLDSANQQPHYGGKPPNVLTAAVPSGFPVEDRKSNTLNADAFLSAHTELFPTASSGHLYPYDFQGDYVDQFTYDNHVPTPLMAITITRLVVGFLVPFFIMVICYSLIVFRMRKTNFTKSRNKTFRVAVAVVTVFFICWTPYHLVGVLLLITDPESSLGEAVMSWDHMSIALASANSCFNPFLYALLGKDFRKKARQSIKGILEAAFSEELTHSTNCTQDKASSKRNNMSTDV
Sequence of UniProt Q9UKP6 (whole entry, unmodified, looked up): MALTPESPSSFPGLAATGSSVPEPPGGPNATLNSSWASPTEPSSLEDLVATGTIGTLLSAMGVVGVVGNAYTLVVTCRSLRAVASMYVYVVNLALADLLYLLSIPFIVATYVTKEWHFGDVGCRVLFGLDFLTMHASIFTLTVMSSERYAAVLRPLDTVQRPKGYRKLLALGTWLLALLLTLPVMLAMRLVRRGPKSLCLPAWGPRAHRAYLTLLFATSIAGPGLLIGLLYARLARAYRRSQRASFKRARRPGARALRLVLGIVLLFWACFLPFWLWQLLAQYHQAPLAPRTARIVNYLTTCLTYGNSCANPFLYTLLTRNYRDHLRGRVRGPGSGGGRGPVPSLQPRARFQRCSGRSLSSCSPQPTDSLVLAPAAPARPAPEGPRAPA
Sequence of UniProt P25100 (whole entry, looked up): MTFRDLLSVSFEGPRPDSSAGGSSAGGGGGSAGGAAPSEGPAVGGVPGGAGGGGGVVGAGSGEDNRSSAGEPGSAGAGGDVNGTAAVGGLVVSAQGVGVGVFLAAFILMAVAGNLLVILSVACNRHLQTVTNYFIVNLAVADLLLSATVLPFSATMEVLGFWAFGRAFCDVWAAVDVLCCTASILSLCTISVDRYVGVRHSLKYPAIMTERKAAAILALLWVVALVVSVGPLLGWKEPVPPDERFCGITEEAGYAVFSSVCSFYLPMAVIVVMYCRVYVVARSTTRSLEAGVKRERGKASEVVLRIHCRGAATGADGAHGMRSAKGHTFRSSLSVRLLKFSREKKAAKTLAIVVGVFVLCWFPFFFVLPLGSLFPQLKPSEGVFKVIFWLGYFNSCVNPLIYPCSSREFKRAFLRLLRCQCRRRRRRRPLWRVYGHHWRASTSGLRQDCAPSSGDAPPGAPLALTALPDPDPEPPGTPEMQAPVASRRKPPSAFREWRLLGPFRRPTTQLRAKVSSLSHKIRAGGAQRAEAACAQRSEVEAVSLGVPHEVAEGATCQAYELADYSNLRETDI
Sequence of UniProt P35372 (whole entry, looked up): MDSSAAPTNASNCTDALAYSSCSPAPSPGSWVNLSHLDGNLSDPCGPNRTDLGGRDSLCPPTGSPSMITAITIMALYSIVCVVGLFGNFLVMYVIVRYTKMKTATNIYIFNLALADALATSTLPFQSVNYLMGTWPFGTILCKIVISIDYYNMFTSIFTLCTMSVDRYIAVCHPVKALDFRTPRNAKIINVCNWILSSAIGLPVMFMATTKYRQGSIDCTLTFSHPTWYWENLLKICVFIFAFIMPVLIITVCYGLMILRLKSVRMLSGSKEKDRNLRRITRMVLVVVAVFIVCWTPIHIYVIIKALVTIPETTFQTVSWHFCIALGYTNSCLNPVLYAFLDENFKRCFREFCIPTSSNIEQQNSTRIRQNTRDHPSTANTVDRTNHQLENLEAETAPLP
Sequence of UniProt P21728 (whole entry, looked up): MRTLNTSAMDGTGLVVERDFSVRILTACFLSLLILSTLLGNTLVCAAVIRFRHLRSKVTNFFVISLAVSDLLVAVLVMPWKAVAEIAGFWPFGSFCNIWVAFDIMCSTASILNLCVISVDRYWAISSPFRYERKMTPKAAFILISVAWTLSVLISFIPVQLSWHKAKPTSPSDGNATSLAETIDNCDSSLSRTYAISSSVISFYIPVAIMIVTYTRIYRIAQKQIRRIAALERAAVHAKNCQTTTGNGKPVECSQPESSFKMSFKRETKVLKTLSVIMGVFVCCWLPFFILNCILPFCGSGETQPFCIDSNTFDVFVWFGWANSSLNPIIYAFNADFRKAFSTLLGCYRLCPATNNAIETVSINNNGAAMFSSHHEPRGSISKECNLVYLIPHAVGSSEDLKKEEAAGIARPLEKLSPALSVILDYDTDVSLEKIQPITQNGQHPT
Sequence of UniProt P41143 (whole entry, unmodified, looked up): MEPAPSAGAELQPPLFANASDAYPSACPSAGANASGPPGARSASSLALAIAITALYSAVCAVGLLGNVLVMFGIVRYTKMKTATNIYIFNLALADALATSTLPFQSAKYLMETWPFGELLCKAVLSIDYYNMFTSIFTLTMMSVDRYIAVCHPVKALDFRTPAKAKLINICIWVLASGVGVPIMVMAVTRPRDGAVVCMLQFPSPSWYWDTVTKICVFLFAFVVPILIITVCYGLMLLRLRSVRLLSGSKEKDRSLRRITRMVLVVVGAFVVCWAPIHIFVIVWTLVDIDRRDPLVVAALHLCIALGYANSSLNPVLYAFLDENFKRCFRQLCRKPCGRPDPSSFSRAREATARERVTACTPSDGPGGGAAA

For `O=C(O)CCn1c(=O)oc2cc(Cl)c(Cl)cc21`, the EC50 was greater than 100000 nM (Mu-type opioid receptor (OPRM1, Homo sapiens, UniProt P35372); agonist).
`CN(C)[C@H](CNC(=O)/C=C/c1cccc2ccccc12)Cc1ccc(O)cc1` gave a Ki of 1200 nM (D(1A) dopamine receptor (DRD1, Homo sapiens, UniProt P21728); cell-free assay).
For `CSCC[C@H](NC(=O)[C@H](CCC(N)=O)NC(=O)[C@H](CCCCN)NC(=O)[C@H](CCCNC(=N)N)NC(=O)[C@H](Cc1ccc(O)cc1)NC(=O)[C@H](CCCNC(=N)N)NC(=O)[C@H](CO)NC(=O)[C@H](Cc1ccc(O)cc1)NC(=O)[C@H](CO)NC(=O)[C@H](CC(=O)O)NC(=O)[C@@H](NC(=O)[C@@H](N)Cc1ccccc1)[C@@H](C)O)C(=O)N[C@@H](C)C(=O)N[C@H](C(=O)N[C@@H](CCCCN)C(=O)N[C@@H](CCCCN)C(=O)N[C@@H](Cc1ccc(O)cc1)C(=O)N[C@@H](CC(C)C)C(=O)N[C@@H](C)C(=O)N[C@@H](C)C(=O)N[C@H](C(=O)N[C@@H](CC(C)C)C(=O)NCC(=O)N[C@@H](CCCCN)C(=O)N[C@@H](CCCNC(=N)N)C(=O)N[C@@H](Cc1ccc(O)cc1)C(=O)N[C@@H](CCCCN)C(=O)N[C@@H](CCC(N)=O)C(=O)N[C@@H](CCCNC(=N)N)C(=O)N[C@H](C(=O)N[C@@H](CCCCN)C(=O)N[C@@H](CC(N)=O)C(=O)N[C@@H](CCCCn1cc(C[C@H](NC(=O)CNC(=O)[C@H](CO)NC(=O)[C@H](CCCNC(=N)N)NC(=O)[C@H](CO)NC(=O)[C@H](CC(C)C)NC(=O)[C@H](CC(C)C)NC(=O)CNC(=O)[C@H](C)NC(=O)[C@H](CC(C)C)NC(=O)[C@H](CCCNC(=N)N)NC(=O)[C@H](Cc2c[nH]cn2)NC(=O)[C@@H](NC(=O)[C@@H](N)C(C)C)[C@@H](C)O)C(=O)N[C@H](C(=O)N[C@H](C(=O)N[C@@H](CCCCN)C(=O)N[C@@H](CC(N)=O)C(=O)N[C@@H](CC(N)=O)C(=O)N[C@@H](Cc2ccccc2)C(=O)N[C@H](C(=O)N2CCC[C@H]2C(=O)N[C@H](C(=O)N[C@@H](CC(N)=O)C(=O)N[C@H](C(=O)NCC(=O)N[C@@H](CO)C(=O)N[C@@H](CCCCN)C(=O)N[C@@H](C)C(=O)N[C@@H](Cc2ccccc2)C(N)=O)C(C)C)[C@@H](C)O)C(C)C)C(C)C)C(C)C)nn1)C(N)=O)C(C)C)C(C)C)C(C)C`, the Kb was 1 nM (Calcitonin-gene-related peptide receptor, CALCRL/RAMP1; cAMP accumulation, antagonist, LANCE cAMP; COS-7 cells, transfected; 15 min).
For `Cc1cc(O)cc(C)c1C[C@H](N)C(=O)N[C@H](CCCNC(=N)N)C(=O)N[C@@H](Cc1ccccc1)C(=O)N(C)CC(=O)N(C)Cc1cc(C(F)(F)F)cc(C(F)(F)F)c1`, the Ki was 4.86 ± 0.91 nM (Delta-type opioid receptor (OPRD1, Homo sapiens, UniProt P41143, S143C)).
The EC50 of `CC(C)[C@H](NC(=O)[C@@H]1CSSC(C)(C)[C@H](NC(=O)[C@@H](N)CC(=O)O)C(=O)N[C@@H](Cc2ccccc2)C(=O)N[C@@H](Cc2c[nH]c3ccccc23)C(=O)N[C@@H](CCCCN)C(=O)N[C@@H](Cc2ccc(O)cc2)C(=O)N1)C(=O)O` is reported as 0.398 nM (Urotensin-2 receptor (UTS2R, Homo sapiens, UniProt Q9UKP6, V159A); IP1 accumulation, agonist, HTRF; HEK293T cells; 1 h, 37 °C).
`Cc1cc(C(c2ccc(Cl)cc2)c2ccc(Cl)cc2)sc1C(=O)N[C@@H](CCCNC(=N)N)C(=O)O` has an EC50 of 1.78 nM (C3a anaphylatoxin chemotactic receptor (C3ar1, Mus musculus, UniProt O09047); cAMP response, agonist, GloSensor cAMP; Gi signalling).
With `CSCC[C@H](NC(=O)[C@H](CCC(N)=O)NC(=O)[C@H](CCCCN)NC(=O)[C@H](CCCNC(=N)N)NC(=O)[C@H](Cc1ccc(O)cc1)NC(=O)[C@H](CCCNC(=N)N)NC(=O)[C@H](CO)NC(=O)[C@H](Cc1ccc(O)cc1)NC(=O)[C@H](CO)NC(=O)[C@H](CC(=O)O)NC(=O)[C@@H](NC(=O)[C@@H](N)Cc1ccccc1)[C@@H](C)O)C(=O)N[C@@H](C)C(=O)N[C@H](C(=O)N[C@@H](CCCCN)C(=O)N[C@@H](CCCCN)C(=O)N[C@@H](Cc1ccc(O)cc1)C(=O)N[C@@H](CC(C)C)C(=O)N[C@@H](C)C(=O)N[C@@H](C)C(=O)N[C@H](C(=O)N[C@@H](CC(C)C)C(=O)NCC(=O)N[C@@H](CCCCN)C(=O)N[C@@H](CCCNC(=N)N)C(=O)N[C@@H](Cc1ccc(O)cc1)C(=O)N[C@@H](CCCCN)C(=O)N[C@@H](CCC(N)=O)C(=O)N[C@@H](CCCCn1cc(C[C@H](NC(=O)CNC(=O)[C@H](CO)NC(=O)[C@H](CCCNC(=N)N)NC(=O)[C@H](CO)NC(=O)[C@H](CC(C)C)NC(=O)[C@H](CC(C)C)NC(=O)CNC(=O)[C@H](C)NC(=O)[C@H](CC(C)C)NC(=O)[C@H](CCCNC(=N)N)NC(=O)[C@H](Cc2c[nH]cn2)NC(=O)[C@@H](NC(=O)[C@@H](N)C(C)C)[C@@H](C)O)C(=O)N[C@H](C(=O)N[C@H](C(=O)N[C@@H](CCCCN)C(=O)N[C@@H](CC(N)=O)C(=O)N[C@@H](CC(N)=O)C(=O)N[C@@H](Cc2ccccc2)C(=O)N[C@H](C(=O)N2CCC[C@H]2C(=O)N[C@H](C(=O)N[C@@H](CC(N)=O)C(=O)N[C@H](C(=O)NCC(=O)N[C@@H](CO)C(=O)N[C@@H](CCCCN)C(=O)N[C@@H](C)C(=O)N[C@@H](Cc2ccccc2)C(N)=O)C(C)C)[C@@H](C)O)C(C)C)C(C)C)C(C)C)nn1)C(=O)N[C@H](C(=O)N[C@@H](CCCCN)C(=O)N[C@@H](CC(N)=O)C(=O)N[C@@H](CCCCN)C(N)=O)C(C)C)C(C)C)C(C)C` the Kb was 1 nM (Calcitonin-gene-related peptide receptor, CALCRL/RAMP1; cAMP accumulation, antagonist, LANCE cAMP; COS-7 cells, transfected; 15 min).
The Ki of `COc1cc2c(cc1O)C(CCc1ccc(Cl)cc1)N(C)CC2` (centres unmarked) is reported as 1000 nM (Alpha-1D adrenergic receptor (ADRA1D, Homo sapiens, UniProt P25100); cell-free assay, radioligand).

For quick reference, copied from above:
With `CSCC[C@H](NC(=O)[C@H](CCC(N)=O)NC(=O)[C@H](CCCCN)NC(=O)[C@H](CCCNC(=N)N)NC(=O)[C@H](Cc1ccc(O)cc1)NC(=O)[C@H](CCCNC(=N)N)NC(=O)[C@H](CO)NC(=O)[C@H](Cc1ccc(O)cc1)NC(=O)[C@H](CO)NC(=O)[C@H](CC(=O)O)NC(=O)[C@@H](NC(=O)[C@@H](N)Cc1ccccc1)[C@@H](C)O)C(=O)N[C@@H](C)C(=O)N[C@H](C(=O)N[C@@H](CCCCN)C(=O)N[C@@H](CCCCN)C(=O)N[C@@H](Cc1ccc(O)cc1)C(=O)N[C@@H](CC(C)C)C(=O)N[C@@H](C)C(=O)N[C@@H](C)C(=O)N[C@H](C(=O)N[C@@H](CC(C)C)C(=O)NCC(=O)N[C@@H](CCCCN)C(=O)N[C@@H](CCCNC(=N)N)C(=O)N[C@@H](Cc1ccc(O)cc1)C(=O)N[C@@H](CCCCN)C(=O)N[C@@H](CCC(N)=O)C(=O)N[C@@H](CCCCn1cc(C[C@H](NC(=O)CNC(=O)[C@H](CO)NC(=O)[C@H](CCCNC(=N)N)NC(=O)[C@H](CO)NC(=O)[C@H](CC(C)C)NC(=O)[C@H](CC(C)C)NC(=O)CNC(=O)[C@H](C)NC(=O)[C@H](CC(C)C)NC(=O)[C@H](CCCNC(=N)N)NC(=O)[C@H](Cc2c[nH]cn2)NC(=O)[C@@H](NC(=O)[C@@H](N)C(C)C)[C@@H](C)O)C(=O)N[C@H](C(=O)N[C@H](C(=O)N[C@@H](CCCCN)C(=O)N[C@@H](CC(N)=O)C(=O)N[C@@H](CC(N)=O)C(=O)N[C@@H](Cc2ccccc2)C(=O)N[C@H](C(=O)N2CCC[C@H]2C(=O)N[C@H](C(=O)N[C@@H](CC(N)=O)C(=O)N[C@H](C(=O)NCC(=O)N[C@@H](CO)C(=O)N[C@@H](CCCCN)C(=O)N[C@@H](C)C(=O)N[C@@H](Cc2ccccc2)C(N)=O)C(C)C)[C@@H](C)O)C(C)C)C(C)C)C(C)C)nn1)C(=O)N[C@H](C(=O)N[C@@H](CCCCN)C(=O)N[C@@H](CC(N)=O)C(=O)N[C@@H](CCCCN)C(N)=O)C(C)C)C(C)C)C(C)C` the Kb was 1 nM (Calcitonin-gene-related peptide receptor, CALCRL/RAMP1; cAMP accumulation, antagonist, LANCE cAMP; COS-7 cells, transfected; 15 min).
